Published values gathered from unrelated publications.
Each numbered part is a random draw from the data of one study; scales do not carry over between parts.

Sample 1 — method: aptamer microarray, sandwich; molecule type: DNA with 2'F-ANA; sample: in vitro; concentration: 200 nM; added: Cy3 exosite-II aptamer, 400 nM; direction: higher = stronger binding; strand: GGTTGGTGTGGTTGG
Target: Prothrombin, mature alpha-thrombin (F2, Homo sapiens, UniProt P00734)
Setting: whole 15-mer aptamer, many near background
`2'F-ANA at 1 2 4 6 7 10 11`: “mean fluorescence intensity” 61.1 a.u.
For `2'F-ANA at 2 6 7 8 12 13 14`, “mean fluorescence intensity” read 168 a.u.
`2'F-ANA at 5 7 9 10 12 13`: “mean fluorescence intensity” 49.1 a.u.
`2'F-ANA at 2 4 5 6 7 8 9 12`: “mean fluorescence intensity” 246 a.u.
`2'F-ANA at 1 2 3 4 5 7 9 10 12` — result for “mean fluorescence intensity”: 53.1 a.u.
For `2'F-ANA at 3 4 8 9 10 11 13`, “mean fluorescence intensity” read 239 a.u.
Under “mean fluorescence intensity”, `2'F-ANA at 3 6 7 12 13 14` is recorded as 608 a.u.
Under “mean fluorescence intensity”, `2'F-ANA at 2 3 5 6 8 10 11 14` is recorded as 73.2 a.u.

Sample 2 — method: competition protein-binding microarray; molecule type: double-stranded DNA, one strand shown; sample: in vitro; concentration: 2 µM; added: Cbf1 competitor, 0.05 µM; direction: higher = stronger binding
Target: Phosphate system positive regulatory protein PHO4, full length, GST-tagged (PHO4, Saccharomyces cerevisiae, UniProt P07270, residues 1-312)
Chain of UniProt P07270 (whole entry, looked up): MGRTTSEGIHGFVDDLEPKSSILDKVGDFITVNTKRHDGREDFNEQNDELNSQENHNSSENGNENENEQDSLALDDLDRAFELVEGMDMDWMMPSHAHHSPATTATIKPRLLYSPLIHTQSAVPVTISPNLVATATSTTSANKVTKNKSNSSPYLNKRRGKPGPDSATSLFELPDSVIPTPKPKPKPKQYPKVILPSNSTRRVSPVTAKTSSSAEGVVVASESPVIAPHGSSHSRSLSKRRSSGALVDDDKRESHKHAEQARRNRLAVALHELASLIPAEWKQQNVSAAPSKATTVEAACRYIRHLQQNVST
Setting: whole 60-bp probe, lowest competitor level
`ATAGCCGAAAGAGGAAATGTGATATGCCCACCTGTGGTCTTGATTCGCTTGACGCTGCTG` gave a fluorescence intensity of 6040 a.u.
`CTAACGAAGGTTTGATCGGTGGGTGACAAGCCAAGTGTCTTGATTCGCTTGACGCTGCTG` has a fluorescence intensity of 3620 a.u.
With `CTTCTGTAAATTTGCCCAGTGGGTGGACGCGCCCCGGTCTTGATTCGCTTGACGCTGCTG` the fluorescence intensity was 3770 a.u.
`GGTAACACCTTCGAAACCGTGACTCGTCTTGACAGCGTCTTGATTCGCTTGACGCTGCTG` gave a fluorescence intensity of 4770 a.u.
The fluorescence intensity of `ATCTAATTTTGCGACCAAGTAGTTCTTAAACAAGTCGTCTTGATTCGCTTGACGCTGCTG` is reported as 3260 a.u.
With `TGTAATTAGTTTCGTCACGCTTACATTCGCGCCCTCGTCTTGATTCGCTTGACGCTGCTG` the fluorescence intensity was 6510 a.u.
The fluorescence intensity of `CAATTTTGTGGTCGGATCGTGCTTTTGCCACCCGCGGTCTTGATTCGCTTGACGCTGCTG` is reported as 8140 a.u.
`ATGAAAAAGATTCACCACGTTTCTTTTGTTTCGATAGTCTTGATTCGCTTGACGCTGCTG` has a fluorescence intensity of 14200 a.u.
`TGCGCAACAACTTGCGCCGTGGGTGTATGTCTAGAAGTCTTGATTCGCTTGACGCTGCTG` gave a fluorescence intensity of 5450 a.u.

Sample 3 — method: RNA Bind-n-Seq; molecule type: RNA; sample: in vitro; concentration: 200 nM; setting: whole 134-nt RNA, ends assumed; added: 150 mM KCl; baseline: input library; direction: higher = stronger binding
Target: Fragile X messenger ribonucleoprotein 1, C-terminal low-complexity region (Fmr1, Mus musculus, UniProt P35922)
The log2 enrichment of `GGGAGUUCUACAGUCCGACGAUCCUCAAGUCCUGUGCUACACAUCGUAUGUACCGAAUCGGAAAAAGGAGGUUUGGAAAGUAUUAUGUUACGCCGUUCGGAUCUGCACUUCCAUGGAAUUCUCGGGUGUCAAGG` is reported as -0.475.
`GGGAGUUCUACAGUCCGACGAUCUCCUGUGCUACACAUCGUAUGUACCGAAUCGGGGUUUGGGGUUUUUGGGGAAAAAGGGGAAAGUAUUAUGUUACGCCGUUCGGAUCUGCAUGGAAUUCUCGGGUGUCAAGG` has a log2 enrichment of 0.68.
With `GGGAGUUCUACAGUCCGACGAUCGUCCUGUGCUACACAUCGUAUGUACCGAAUCGGGUUUUUGGUUUUUGGGUUUUUGGGGAAAGUAUUAUGUUACGCCGUUCGGAUCUGCACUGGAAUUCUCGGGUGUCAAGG` the log2 enrichment was -0.194.
`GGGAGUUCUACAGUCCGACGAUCUCCUGUGCUACACAUCGUAUGUACCGAAUCAAACCCCCCCAAACCCAAAUUUUUUUAAAAAAGUAUUAUGUUACGCCGUUCGGAUCUGCAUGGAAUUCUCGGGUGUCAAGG` gave a log2 enrichment of 0.115.
`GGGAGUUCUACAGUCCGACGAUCGCAGGAAGUAAAAACAAAUGGAAAUGCUUCGGAUAGUGGCAGGGGUGAAAGUUGCUAAGGAAAGGGUGGGAUGGGAGUGGGUAAAGAGUUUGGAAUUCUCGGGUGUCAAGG` gave a log2 enrichment of 0.35.
`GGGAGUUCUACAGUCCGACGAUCACCAUGCAGGUGGGCAUCUUUGGGAAGUGGGGUAAGGGGGGGAUAGGGAGGGGGGUAACACUUUGGGAACAGGUGGUCCCAGGUCGUUUCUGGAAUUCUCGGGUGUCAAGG` has a log2 enrichment of 0.845.
`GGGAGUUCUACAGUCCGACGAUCCAAGUCCUGUGCUACACAUCGUAUGUACCGAAUCGGCCCGGGGCCCGGGGCCCGGAAAGUAUUAUGUUACGCCGUUCGGAUCUGCACUUCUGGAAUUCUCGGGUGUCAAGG` gave a log2 enrichment of -0.528.
`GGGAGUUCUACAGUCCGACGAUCUCAAGUCCUGUGCUACACAUCGUAUGUACCGAAUCGGAGGUUUUUGGUUUUUGGAAAGUAUUAUGUUACGCCGUUCGGAUCUGCACUUCCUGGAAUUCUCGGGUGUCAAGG` gave a log2 enrichment of -0.789.
The log2 enrichment of `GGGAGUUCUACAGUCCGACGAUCUGGCCCUGGUGGCAUGCGGGGAGGAAGAGGUGGCCUCAUGGAUCGUGGUGGUCCCGCUGGAAUGUUCAGAGGUGGCCGUGGUGGAGACAGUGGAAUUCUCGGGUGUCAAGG` is reported as -0.31.
With `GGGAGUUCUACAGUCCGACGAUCUGGCCCUGGUGGCAUGCGGGAAGGAAGAGGUGGCCUCAUGGAUCGUGGUGGUCCCGGUGGAAUGUUCAGAGGUGGCCGUGGUGGAGACAGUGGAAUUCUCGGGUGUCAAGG` the log2 enrichment was 0.443.

Single results of other studies
The fold induction of `PhoQ, residues 284 288 289 292 302 303 GNNTDL` is reported as 5.42 (PhoP, residues 12 14 15 18 19 LQHIR (Escherichia coli, UniProt P23836); Sort-seq, measured: YFP reporter; E. coli; PhoQ-PhoP variant library, added: 10 µM Mg2+; baseline: high Mg2+ state, higher = stronger signaling).
